Assay results collected from several papers.
Numbers after ± are the reported error.

CCCC[C@H](NC(=O)[C@@H](NC(=O)[C@H](CCC(=O)O)NC(=O)CNC(=O)[C@]1(C)CCCC=CCCC[C@](C)(NC(=O)[C@H](Cc2ccccc2)NC(=O)[C@H](CCCCN)NC(=O)[C@H](CCCCN)NC(=O)[C@H](C)NC(=O)[C@H](CO)NC(=O)[C@H](Cc2c[nH]cn2)NC(=O)[C@H](CC(C)C)NC(=O)[C@H](Cc2ccccc2)NC(=O)[C@H](CCCCN)NC(=O)CNC(=O)[C@@H](NC(=O)CN)[C@@H](C)CC)C(=O)N[C@@H](CCCCN)C(=O)N[C@@H](C)C(=O)N[C@@H](Cc2ccccc2)C(=O)N1)[C@@H](C)CC)C(=O)N[C@@H](CC(N)=O)C(=O)N[C@@H](CO)C(N)=O — retention time (HPLC C18 column): 15.3 min
OC[C@H]1O[C@@H](c2ccc(F)c(Cc3cc4ccccc4s3)c2)[C@H](O)[C@@H](O)[C@@H]1O — hypoglycaemia adverse events (Japanese type 1 diabetes patients; oral, 100 mg/day, day 14): 8 % patients
CC1(C)CC[C@]2(NC(=O)C(C)(F)F)CC[C@]3(C)[C@H](C(=O)C=C4[C@@]5(C)C=C(C#N)C(=O)C(C)(C)[C@@H]5CC[C@]43C)[C@@H]2C1 — trough concentration (human, plasma; oral, 150 mg once daily, day 17 predose, geometric mean): 36.5 ng/mL
CC(C)(C(=O)N1CCOc2c(C#N)cncc2C1)C(F)F — subjects with adverse event (refers to: conjunctival hyperaemia; human; oral, 20 mg twice daily, 14 days, multiple ascending dose): 0%
NC1(C(=O)N[C@@H](CCO)c2ccc(Cl)cc2)CCN(c2nc[nH]c3nccc2-3)CC1 — incidence of Somnolence (metastatic CRPC patients; dose not given, grade 3 to 4, treatment-related, all doses, added: enzalutamide 160 mg daily): 0%
Cc1cc(O)c2c(c1)C(=O)c1cccc(O)c1C2=O — viability (HK-2 co-cultured with HepaRG; MTT; 33.33 µM, 48 h; reference: untreated control): 65.8 ± 10.1%
C[C@]12CC[C@H](O)CC1=CC[C@@H]1[C@@H]2CC[C@]2(C)C(c3cccnc3)=CC[C@@H]12 — dose-adjusted solubility (FaSSIF; literature solubility over dose): 7.83e-06 mL⁻¹
NC(=O)N1c2ccccc2C=Cc2ccccc21 — adverse events incidence (refers to: general and administration site (SOC); human male; oral, dose not given, AEs, treatment-related, on drug, CTCAE): 27%
COc1c(N2C[C@@H]3CCCN[C@@H]3C2)c(F)cc2c(=O)c(C(=O)O)cn(C3CC3)c12 — QTcI change from baseline (healthy volunteers; oral, 400 mg single dose, day 5, 2.00 h): 3.9 ms
Cc1cc(-c2nccc3c2ccn3CC(=O)Nc2ccc(-c3cnccn3)cn2)ccn1 — terminal half-life (human, plasma; oral, 20 mg single dose, geometric mean): 10.8 h
COc1cc2c(c(OC)c1OC)C(=O)c1c(cc(C)c(O)c1OC)C2=O — viability (HK-2 co-cultured with HepaRG; MTT; 266.67 µM, 24 h; reference: untreated control): 58.8 ± 2.98%
CCOc1c([C@H](C)n2nc(C)c3c(N)ncnc32)cc(Cl)c(F)c1[C@@H]1CNC(=O)C1 — observations with HR above 100 bpm (ECG; previously treated B-cell malignancy patients; oral, 45 mg once daily, baseline below thresholds): 0%
CCOc1cc(/C=C2\CN(C(C)=O)CC3=C2OC(N)=C(C#N)C3c2ccc(O)c(OCC)c2)ccc1O (stereo not shown) — body weight (Wistar rats, tumour-bearing; dose not given, day 21): 149 ± 2.1 g
Cc1nc(-c2ccc(OCC(C)C)c(C#N)c2)sc1C(=O)O — geometric mean ratio AUC(0-24) (human, plasma; oral, 40 mg, added: verinurad 10 mg; reference: test over reference): 91.6
O=C(c1cccnc1-c1ccncc1)N1CCC(O)(Cc2ccccc2)CC1 — Vz/F (healthy Japanese adults, plasma; oral, 200 mg twice daily, day 14): 1090 L
CNC(=O)c1ccc(-c2cnc3ncc(Cc4ccc5ncccc5c4)n3n2)cc1F — Cmax (human, plasma; oral, 200 mg, geometric mean): 1330 ng/mL
CC(=O)O[C@H]1C(=O)[C@@]2(C)[C@H]([C@H](OC(=O)c3ccccc3)[C@]3(O)C[C@H](OC(=O)[C@H](O)[C@@H](NC(=O)c4ccccc4)c4ccccc4)C(C)=C1C3(C)C)[C@]1(OC(C)=O)CO[C@@H]1C[C@@H]2O — adverse event incidence (refers to: lymphocyte count decreased; patients with advanced solid tumours; intravenous, dose not given, grade 1 and 2, possibly related to drug): 15%
Cn1cc(Nc2nccc(-c3ccc4c(c3)CN(C3COC3)CC[C@H]4NC(=O)c3cn(C(C)(C)C)nn3)n2)cn1 — percent change from baseline (refers to: NKT cell count; human, clinical trial, whole blood; 150 mg twice daily, follow-up): -15.9%
O=C(Nc1nc2cccc(-c3ccc(CN4CCS(=O)(=O)CC4)cc3)n2n1)C1CC1 — treatment-emergent adverse events (refers to: blood and lymphatic disorders; rheumatoid arthritis patients; oral, 75 mg once daily, 4 weeks, any relatedness): 4.5%

For quick reference, copied from above:
C[C@]12CC[C@H](O)CC1=CC[C@@H]1[C@@H]2CC[C@]2(C)C(c3cccnc3)=CC[C@@H]12 — dose-adjusted solubility (FaSSIF; literature solubility over dose): 7.83e-06 mL⁻¹
Cn1cc(Nc2nccc(-c3ccc4c(c3)CN(C3COC3)CC[C@H]4NC(=O)c3cn(C(C)(C)C)nn3)n2)cn1 — percent change from baseline (refers to: NKT cell count; human, clinical trial, whole blood; 150 mg twice daily, follow-up): -15.9%
COc1c(N2C[C@@H]3CCCN[C@@H]3C2)c(F)cc2c(=O)c(C(=O)O)cn(C3CC3)c12 — QTcI change from baseline (healthy volunteers; oral, 400 mg single dose, day 5, 2.00 h): 3.9 ms
